Results of several laboratories.
Parts stem from different laboratories: compare values within a part only.

Block 1
Target: Prothrombin, mature alpha-thrombin (F2, Homo sapiens, UniProt P00734)
Method: aptamer microarray, sandwich
Form: DNA with 2'F-ANA
Matrix: in vitro
Concentration: 200 nM
Setting: whole 15-mer aptamer, many near background
Together with: Cy3 exosite-II aptamer, 400 nM
Reading: higher = stronger binding
Quantity: mean fluorescence intensity
Oligonucleotide: GGTTGGTGTGGTTGG
2'F-ANA at 2 4 6 7 9 10 12 13: 80.2 a.u.
2'F-ANA at 3 4 5 6 7 10: 51.4 a.u.
2'F-ANA at 1 2 3 4 5 6 9 13 14 15: 46.3 a.u.
2'F-ANA at 5 7 8 12 14: 56.5 a.u.
2'F-ANA at 1 6 7 9 10 12 13: 66.3 a.u.
2'F-ANA at 1 2 5 6 9 11 13 14 15: 45.9 a.u.
2'F-ANA at 2 4 5 6 7 8 9 10 11 15: 52.9 a.u.
2'F-ANA at 1 2 3 4 5 7 9 12: 139 a.u.
2'F-ANA at 3 4 5 6 7 10 11: 51.5 a.u.
2'F-ANA at 3 5 8 9 10 12 14: 54 a.u.
2'F-ANA at 1 5 6 7 8 9 10 12 14 15: 48.5 a.u.
2'F-ANA at 1 5 6 8 9 14: 59.5 a.u.
2'F-ANA at 2 5 6 7 8 13 14 15: 49.5 a.u.
2'F-ANA at 1 3 4 5 9 10 11 14: 44.7 a.u.
2'F-ANA at 6 7 9 10 12 13 14 15: 110 a.u.
2'F-ANA at 1 2 3 4 7 8 11 12 14 15: 88.8 a.u.
2'F-ANA at 2 3 5 11 12 13 14 15: 55.6 a.u.
2'F-ANA at 3 5 11 12: 230 a.u.
2'F-ANA at 1 6 7 8 11 12 13 14: 70 a.u.
2'F-ANA at 2 4 7 9 14 15: 108 a.u.

Block 2
Target: RNA binding protein fox-1 homolog 2, RRM domain, GST-SBP tag (RBFOX2, Homo sapiens, UniProt O43251-10, residues 100-194)
Method: RNA Bind-n-Seq
Form: RNA
Matrix: in vitro
Concentration: 365 nM
Setting: natural RNA segment, single round, ends assumed
Reference: no-protein control
Reading: higher = stronger binding
Quantity: RBNS enrichment (R)
Target sequence (chain): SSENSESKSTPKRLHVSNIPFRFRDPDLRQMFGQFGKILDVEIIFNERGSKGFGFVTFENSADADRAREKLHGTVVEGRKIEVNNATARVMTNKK
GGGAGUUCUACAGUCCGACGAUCUGGUCUUGAGGGAAUGUUAGCAAGGAACACAUAGAAGAUUUGGUGUUUCAUAAGCCUGUCUAGGUGUGGCAGGUUUUGUGUGGUACACUGAUGUUUACCAUAAGCAGGUAUGGAAUUCUCGGGUGCCAA: 2.24
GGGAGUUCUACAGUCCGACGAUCACAAAUUUCGCCAUACUCAGUGGGACUCUCAAGUAGACUUUCAUAGUUGCAGUCACUUCAGGUCUCUCCCUCGGGUUCCCUUAGGAUGCAAGCACAAGAACAGACACCUGUGGAAUUCUCGGGUGCCAA: 0.308
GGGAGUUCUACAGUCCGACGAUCGUAAAUAAAUGUAUAUGUUUUAUAAUUCUGGAGAGACAUAAGGAGUCCUACCCGUUGAGGUUGGAGAGGGAAAAUAAAGAAGCUGCCACCUAACAGGAGUCACCCAGGAAUGGAAUUCUCGGGUGCCAA: 0.736
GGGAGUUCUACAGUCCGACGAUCCCAUCUUUCCCUCAAGUGACCGUAUCUAGUGACAGGAAGGGAGAACCCUACAGUAGAUCCCUCUGCUUGGGUUUCAACUGGAGAUAGUGCCUUCCCCUGAUAACCAUUUUUGGAAUUCUCGGGUGCCAA: 0.279
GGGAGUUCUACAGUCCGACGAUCUGUUUUCAUUGUUUGCAGCGGAUUACUGGACAUCAAAGAUUCAUUGCACUUAUGAACAAGGAACCUUAUUUUCAAUUUCUGUGUAAUUUUGCAAGGCUGUACAAUGUGCUUGGAAUUCUCGGGUGCCAA: 0.848
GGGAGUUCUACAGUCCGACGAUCACACUACAGGAAUAUGUAAUUGUUUCUUGCAGAAGUCUUAAGUCCACCCAAUAAUAAGAUCAGAAGAUAUUUAAUUCUUUUCACAUUUUAUUUAUUUAAAGUGGAAAUUCUGGAAUUCUCGGGUGCCAA: 0.391
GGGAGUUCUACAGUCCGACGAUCCUUUAACUGAAUUUUCAAAUGAAAUGAACUAUGCUUAUUGCUGGCACAUUGAUCCCAUUUCUGGAACAUUUUUCCUAUUUCCAGAGUUACAUAUGUUCUUUUGUCAUUACUGGAAUUCUCGGGUGCCAA: 0.55
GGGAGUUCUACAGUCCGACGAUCUAUUCCGUAGCAUAUGAUAGCAGAGCAAAUACCGGAUCUGGAUCUAGCUGAUUUCCAUCCAUUGGCUAAUGGCCAACUUCAUGUCCUUGGGUAACUUGCCACCACCCUGGUGGAAUUCUCGGGUGCCAA: 0.614
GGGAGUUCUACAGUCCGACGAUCAUCAAUUGUGCUUUAGGAAAUUAUUGACAGUUUUGCACAGGUUCUUGAAAACGUUAUUUAUAAUGAAAUCAACUAAAACUAUUUUUGCUAUAAGUUCUAUAAGGUGCAUAUGGAAUUCUCGGGUGCCAA: 0.637
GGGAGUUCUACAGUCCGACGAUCGAAUUUUUUAUGUACAUAAAGCCAUAUGUUUAGGGUGGUUUCUAUCUGUCUUGUUUUUCACUUAUAUAACACUGUGAACUUCUAAAGCAAGAGGAUAAAAGAAGCAUGAAUGGAAUUCUCGGGUGCCAA: 7.75
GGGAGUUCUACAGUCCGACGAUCCAGACUCUGGCAGUAUUGAUGAGCCUGGCGCUGUUUGCUUUGGUGCAGCCUCCACAGUGCGCGUUCAUUUUAUCAUAUUUUGGUAUCGGUAAUUUGAUAUAUUUCAUGGUUGGAAUUCUCGGGUGCCAA: 0.278
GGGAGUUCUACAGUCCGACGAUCACACAGCAACUGAUCGGCUUUCUGUCCUUCAGGUUUGCCAUUUCUGAACAUUUCCUAUAAAUGGAAUCAGACAUGGUCUUUUGUGUCUGGCUUCUUUCACUCAGUAAUGUUGGAAUUCUCGGGUGCCAA: 0.295

Block 3
Target: Ras GTPase-activating protein-binding protein 1, C-terminal RGG region (G3BP1, Homo sapiens, UniProt Q13283)
UniProt Q13283, sequence (whole entry, looked up): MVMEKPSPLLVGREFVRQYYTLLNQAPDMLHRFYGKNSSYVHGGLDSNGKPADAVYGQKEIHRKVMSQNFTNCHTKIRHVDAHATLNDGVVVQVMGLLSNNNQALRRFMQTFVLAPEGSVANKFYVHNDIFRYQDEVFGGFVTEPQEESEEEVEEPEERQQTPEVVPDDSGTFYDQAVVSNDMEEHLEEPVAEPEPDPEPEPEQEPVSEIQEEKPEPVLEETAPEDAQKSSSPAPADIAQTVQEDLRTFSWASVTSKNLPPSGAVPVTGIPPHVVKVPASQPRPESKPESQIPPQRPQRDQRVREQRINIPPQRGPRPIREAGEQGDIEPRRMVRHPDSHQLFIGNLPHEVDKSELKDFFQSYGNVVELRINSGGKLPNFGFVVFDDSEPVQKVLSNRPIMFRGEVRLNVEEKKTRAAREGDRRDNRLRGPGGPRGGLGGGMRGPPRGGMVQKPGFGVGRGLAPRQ
Method: RNA Bind-n-Seq
Form: RNA
Matrix: in vitro
Concentration: 1 µM
Setting: whole 134-nt RNA, ends assumed
Together with: 150 mM KCl
Reference: input library
Reading: higher = stronger binding
Quantity: log2 enrichment
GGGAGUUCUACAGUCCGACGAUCUGGCCCUGGUGGCAUGCGGGGAGGAAGAGGUGGCCUCAUGGAUCGUGGUGGGCCCGGUGGAAUGUUCAGAGGUGGCCGUGGUGGAGACAGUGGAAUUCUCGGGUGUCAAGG: 0.178
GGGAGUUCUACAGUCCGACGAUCAGUCCUGUGCUACACAUCGUAUGUACCGAAUCGGUUUUUUUGGAAAAAAAGGUUUGGAAAGUAUUAUGUUACGCCGUUCGGAUCUGCACUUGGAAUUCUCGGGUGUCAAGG: -2.57
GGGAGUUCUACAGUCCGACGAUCCAAGUCCUGUGCUACACAUCGUAUGUACCGAAUCGUGUGUGUGUGUGUGUGUGUGUAAAGUAUUAUGUUACGCCGUUCGGAUCUGCACUUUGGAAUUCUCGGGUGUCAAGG: 1.15
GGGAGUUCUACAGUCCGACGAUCCUCAAGUCCUGUGCUACACAUCGUAUGUACCGAAUCGGUGGAGGUUUUUUUGGAAAGUAUUAUGUUACGCCGUUCGGAUCUGCACUUCCAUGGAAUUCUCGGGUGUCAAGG: -0.975
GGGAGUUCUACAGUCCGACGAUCAAAUGGUAGUGUGCGGAGUUUUUUUUUCUUCCUUCUUUUAAAAAUGGUUGUUUAAGACUUUAACAAUGGGAACCCCUUGUGAGCAUGCUCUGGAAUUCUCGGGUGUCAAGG: -1.73
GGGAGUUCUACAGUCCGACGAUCUAGCAAGCCAAAUUACAGCAGCAGAUGGACCUGCAGAAAAAUCACAUUUUCCGUCUGACUCAAGGACUGCAAGAAGCUCUAGAUCGGGCUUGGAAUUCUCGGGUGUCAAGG: -2.21
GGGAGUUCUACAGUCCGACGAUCCACAGACAACACGCACCCACACAGACACAGAGGGAAGGGGUUGGGAUGGGGACAGGGUGAACAGCAGGGCGGGGUAGGACCCCAGCCCCUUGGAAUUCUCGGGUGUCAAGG: -0.517
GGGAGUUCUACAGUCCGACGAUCGAACUUUAGAGGAGGAUCUGAUGGAUAUGGCAGUGGACGUGGAUUUGGGGAUGGCUAUAAUGGGUAUGGAGGAGGACCUGGAGGUGGCAAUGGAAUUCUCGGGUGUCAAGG: -0.863
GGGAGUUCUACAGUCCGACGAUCCUCAAGUCCUGUGCUACACAUCGUAUGUACCGAAUCGGUUUGGUGGAAAAAGGAAAGUAUUAUGUUACGCCGUUCGGAUCUGCACUUCCAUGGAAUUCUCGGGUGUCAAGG: -1.13
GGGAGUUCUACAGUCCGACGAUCCUCAAGUCCUGUGCUACACAUCGUAUGUACCGAAUCGGCCGGGGCCGGGCCGGAAAGUAUUAUGUUACGCCGUUCGGAUCUGCACUUCCAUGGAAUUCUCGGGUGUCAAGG: -1.02
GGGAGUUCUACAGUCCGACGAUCGUCCUGUGCUACACAUCGUAUGUACCGAAUCGGGGAAAGGGGUGGGGUUUUUUUGGGGAAAGUAUUAUGUUACGCCGUUCGGAUCUGCACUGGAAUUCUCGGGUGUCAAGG: 1.84
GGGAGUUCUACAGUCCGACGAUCCCUCAAGUCCUGUGCUACACAUCGUAUGUACCGAAUCGGAAGGAAGGGAAGGGAAAGUAUUAUGUUACGCCGUUCGGAUCUGCACUUCCAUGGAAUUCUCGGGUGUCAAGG: -1.34
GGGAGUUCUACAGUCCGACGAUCAAGUCCUGUGCUACACAUCGUAUGUACCGAAUCGGGUUUGGGUUUUUGGGUUUGGGAAAGUAUUAUGUUACGCCGUUCGGAUCUGCACUUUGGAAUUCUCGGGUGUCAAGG: 1.15
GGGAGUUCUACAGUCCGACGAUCACCAUGCAGGUGGGCAUCUUUGGGAAGUGGGGCAGGGGGGGGAUAGGGAGGGGGGUAACACUUUGGGAACAGGUGGUCCCAGGUCGUUUCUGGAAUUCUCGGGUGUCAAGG: -0.975

Block 4
Target: Interferon regulatory factor 5, full length, phosphomimetic (IRF5, Homo sapiens, UniProt Q13568-2, residues 1-514, S451D/S453D/S456D/S462D)
Method: protein-binding microarray
Form: double-stranded DNA, one strand shown
Matrix: in vitro
Concentration: 940 nM top
Setting: 60-bp whole probe
Together with: salmon DNA 0.4 mg/ml
Reference: random background probes
Reading: higher = stronger binding
Quantity: fitted relative affinity
Constant ends, left off below: GCCTAGCAC … GTCTTGATTCGCTTGACGCTGCTG
TCAGATTTCAGACTGGATTAGTGCTAG: 0.0132 z-score
GCCATTATGAGTCTTGAAGAGTGCTAG: -0.398 z-score
GACGATCTCGGGACTGGAGACGTGCTA: -0.312 z-score
TCAAGTCTGAGATCCAGACTGTGCTAG: -0.893 z-score
TCACGGGCTTCTTTTTCTACTGTGCTA: 0.955 z-score
GACGACATCGGGACTGGAGACGTGCTA: -0.482 z-score
GACGCTATCAGTTTCGAGACGTGCTAG: 3.72 z-score
AACGGTCTCCTACTGCTGACGTGCTAG: -0.00428 z-score
GAAGATTTCGGGACTGGAGACGTGCTA: -0.0592 z-score
TCACTTTCCTTCTTGATACTGTGCTAG: 2.31 z-score
TTAGGACCGGGTTTCGGTTAGTGCTAG: 6.95 z-score
GACGAACTGGGGACTGGACACGTGCTA: -0.278 z-score
TTAGGTTTCGGACTCGGTTAGTGCTAG: 7.44 z-score
TTAGGTATCGGGTATCGGATAGTGCTA: 6.63 z-score
TCATTTGTTTCACTTCCTACTGTGCTA: 3.46 z-score
TTAGATTACAGTATCGATTAGTGCTAG: 3.92 z-score
GACGGTTTCGGGTTTGGGGACGTGCTA: 8.71 z-score
TACGATTTCAGTTTCGAGACGTGCTAG: 4.76 z-score
GATGATCTCAGACTGGAGACGTGCTAG: -0.43 z-score
ATCGTAAGCAAAAATGATTGGTGCTAG: -0.118 z-score

Repeated from above (block 2):
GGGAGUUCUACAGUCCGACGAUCCUUUAACUGAAUUUUCAAAUGAAAUGAACUAUGCUUAUUGCUGGCACAUUGAUCCCAUUUCUGGAACAUUUUUCCUAUUUCCAGAGUUACAUAUGUUCUUUUGUCAUUACUGGAAUUCUCGGGUGCCAA: 0.55
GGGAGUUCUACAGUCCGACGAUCUAUUCCGUAGCAUAUGAUAGCAGAGCAAAUACCGGAUCUGGAUCUAGCUGAUUUCCAUCCAUUGGCUAAUGGCCAACUUCAUGUCCUUGGGUAACUUGCCACCACCCUGGUGGAAUUCUCGGGUGCCAA: 0.614
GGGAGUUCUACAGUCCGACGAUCAUCAAUUGUGCUUUAGGAAAUUAUUGACAGUUUUGCACAGGUUCUUGAAAACGUUAUUUAUAAUGAAAUCAACUAAAACUAUUUUUGCUAUAAGUUCUAUAAGGUGCAUAUGGAAUUCUCGGGUGCCAA: 0.637
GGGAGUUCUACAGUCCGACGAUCGAAUUUUUUAUGUACAUAAAGCCAUAUGUUUAGGGUGGUUUCUAUCUGUCUUGUUUUUCACUUAUAUAACACUGUGAACUUCUAAAGCAAGAGGAUAAAAGAAGCAUGAAUGGAAUUCUCGGGUGCCAA: 7.75
